# Published values gathered from unrelated publications.
# Every numbered part comes from another study and shows a few of its results, in no order. Substitutions count along the parent as printed.

# Sample 1 — technique: aptamer microarray, sandwich; form: DNA with 2'F-ANA; sample: in vitro; concentration: 200 nM; together with: Cy3 exosite-II aptamer, 400 nM; direction: higher = stronger binding; sequence: GGTTGGTGTGGTTGG
# Target: Prothrombin, mature alpha-thrombin (F2, Homo sapiens, UniProt P00734)
# Setting: whole 15-mer aptamer, many near background
Modification,mean fluorescence intensity
2'F-ANA at 2 4 6 7 10 12 13 15,94.5 a.u.
2'F-ANA at 5 6 8 9 12 13 14,51 a.u.
2'F-ANA at 2 3 8 10 13,376 a.u.
2'F-ANA at 1 2 3 6 7 8 9 13 14,70.6 a.u.
2'F-ANA at 3 4 6 7 10 11 13,224 a.u.
2'F-ANA at 1 3 4 7 11 12 13 14,88.3 a.u.
2'F-ANA at 1 2 3 5 6 8 9 12,134 a.u.
2'F-ANA at 1 2 3 4 5 7 9 12 13 14 15,49.8 a.u.
2'F-ANA at 2 6 7 8 10 12 15,277 a.u.
2'F-ANA at 1 4 5 6 8 13 15,51.3 a.u.
2'F-ANA at 2 3 4 5 8 12 13 14,53.7 a.u.
2'F-ANA at 2 5 6 9 10 12 13,48.5 a.u.
2'F-ANA at 4 11,287 a.u.
2'F-ANA at 3 4 8 9 10 11 12 13 15,251 a.u.
2'F-ANA at 2 3 6 7 9 11 15,551 a.u.
2'F-ANA at 1 2 3 4 5 8 9 12 13 14 15,49 a.u.
2'F-ANA at 4 5 7 8 9 11 12 15,104 a.u.
2'F-ANA at 2 4 5 6 7 8 9 10 12 13,52.9 a.u.

# Sample 2 — target: CEP164, C-terminal peptide (human); technique: DHFR complementation, deep sequencing; sample: yeast; reference: wild type; direction: higher = weaker binding
# Setting: single substitutions, model-inferred values
# Starting sequence: PDZK1, PDZ domain 2 (human); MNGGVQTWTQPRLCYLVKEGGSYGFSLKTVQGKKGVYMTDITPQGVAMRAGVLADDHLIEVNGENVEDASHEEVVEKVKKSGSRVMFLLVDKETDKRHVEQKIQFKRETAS; partner HNRVKVYRF
Change,binding free energy change [kcal/mol]
E108K,-0.355
T7K,-0.145
G4Q,-0.045
K18P,1.24
A54R,0.242
E19W,0.327
G63K,0.423
V17M,0.112
I103Q,-0.107
K79P,0.689
G3C,-0.00606
K102T,-0.0665
K92C,-0.0218

# Sample 3 — target: CCNA1, cyclin fold, Cln2 fusion (human); technique: yeast growth competition, sequencing; sample: yeast; setting: weak parent motif; reference: not given; direction: higher = stronger binding
# Starting sequence: SAMHD1 docking peptide (human); ASKSRVQLFKDDP; partner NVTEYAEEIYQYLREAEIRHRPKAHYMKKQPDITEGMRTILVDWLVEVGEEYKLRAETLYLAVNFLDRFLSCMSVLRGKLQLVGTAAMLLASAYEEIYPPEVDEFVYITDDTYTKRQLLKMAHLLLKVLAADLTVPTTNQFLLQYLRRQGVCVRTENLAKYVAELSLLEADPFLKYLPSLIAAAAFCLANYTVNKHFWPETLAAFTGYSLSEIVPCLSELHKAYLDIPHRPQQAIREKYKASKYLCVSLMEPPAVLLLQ
Change,normalised enrichment score
ASKCRVQLFKDDP [S4C],1.19
ASKSRVQLFKDVP [D12V],0.444
ASKSRVGLFKDDP [Q7G],0.202
ASKSRVQKFKDDP [L8K],0.482
ASKSKVQLFKDDP [R5K],0.356
ASKSRVQLTKDDP [F9T],0.508
ASKSRVMLFKDDP [Q7M],-0.191
ASKSRVQLFSDDP [K10S],0.482
ASKSRRQLFKDDP [V6R],1.31
ASKSRVQLFKDQP [D12Q],0.00181
ASYSRVQLFKDDP [K3Y],0.343
AVKSRVQLFKDDP [S2V],0.633
ASKSRVQLFKDEP [D12E],0.457
ASKSRGQLFKDDP [V6G],0.17
ASKSRHQLFKDDP [V6H],-0.339
ASKSCVQLFKDDP [R5C],0.302
ASKSRAQLFKDDP [V6A],0.244
ASKSREQLFKDDP [V6E],0.0818
ASKSRVQLFKDTP [D12T],0.237
ASKSRVQLFHDDP [K10H],-0.00192
ALKSRVQLFKDDP [S2L],0.285
AIKSRVQLFKDDP [S2I],0.651
ASKSRVQLEKDDP [F9E],0.252
ASKSRVQLCKDDP [F9C],0.129

# Sample 4 — technique: RNA Bind-n-Seq; form: RNA; sample: in vitro; concentration: 200 nM; setting: whole 134-nt RNA, ends assumed; together with: 150 mM KCl; reference: input library; direction: higher = stronger binding
# Target: Fragile X messenger ribonucleoprotein 1, C-terminal low-complexity region (Fmr1, Mus musculus, UniProt P35922)
# All sequences stand within: GGGAGUUCUACAGUCCGACGAUC … UGGAAUUCUCGGGUGUCAAGG
Sequence,log2 enrichment
GUCCUGUGCUACACAUCGUAUGUACCGAAUCGGGAAAAAGGGAAAAAGGGUUUUUGGGAAAGUAUUAUGUUACGCCGUUCGGAUCUGCAC,-0.508
CUGUGCUACACAUCGUAUGUACCGAAUCGGGAAAAAAAGGGAAAAAAAGGGGAAAAAAAGGAAAGUAUUAUGUUACGCCGUUCGGAUCUG,-0.73
CCUGUGCUACACAUCGUAUGUACCGAAUCGGGAAAAAAAGGGAAAAAAAGGAAAAAAAGGGAAAGUAUUAUGUUACGCCGUUCGGAUCUG,-0.946
UAACUUUAGAGGAGGAUCUGAUGGAUAUGGCAGUGGACGUGGCUUUGGGGAUGGCUAUAAUGGGUAUGGAGGAGGACCUGGAGGUGGCAA,0.158
GCAGGAAGUAAAAACAAAUGGAAAUGCUUCGGAUAGUGGCAGGGGUGGGGGUAGCUAAGGAAAGGGUGGGAUGGGAGUGGGUAAAGAGUU,0.215
CCUCAAGUCCUGUGCUACACAUCGUAUGUACCGAAUCGGGGUGGGUGGUGGGAAAGUAUUAUGUUACGCCGUUCGGAUCUGCACUUCCAG,1.24
UUUUAGAAAGAGAAGGGGAAGAAAAUGAAGCCUUACAUAAGAUGAUUGCAAACGAGCAAAAGACUUCUCUCCCAAAUUUGUUCCAGGAUA,-1.29
CAAGUCCUGUGCUACACAUCGUAUGUACCGAAUCGGGGCCGGGGCCGGGCCGGGGAAAGUAUUAUGUUACGCCGUUCGGAUCUGCACUUC,0.0399
UGGGAGGUGGAUUUUGUUUAUUUUUUUAGCUCAUUUCCAGCGGUGGGAAUUUUUUUUUAAUAUGUGUCAUGAAUAAAGUUGUUUUUGAAA,0.226
ACCAUGCAGGUGGGCAUCUUUGGGAAGUGGGGCAAGGGGGGGAUAAAAAGGGGGGUAACACUUUGGGAACAGGUGGUCCCAGGUCGUUUC,0.303
UAACUUUAGAGGAGGAUCUGAUGGAUAUGGUAGUGGACGUGGAUUUGGGGAUGGCUAUAAUGGGUAUGGAGGAGGACCUGGAGGUGGCAA,0.269
GCAGGAAGUAAAAACAAAUGGAAAUGCUUCGGAUAGUGGCAGGGGUGGGGGUUGCUAAGGAAAGGGUCGGAUGGGAGUGGGUAAAGAGUU,0.326
GUCCUGUGCUACACAUCGUAUGUACCGAAUCGGGGCCCCCCGGCCCCCCGGCCCCCCGGAAAGUAUUAUGUUACGCCGUUCGGAUCUGCA,-0.221
GUAGGAAGUAAAAACAAAUGGAAAUGCUUCGGAUAGUGGCAGGGGUGGGGGUUGCUAAGGAAAGGGUGGGAUGGGAGUGGGUAAAGAGUU,0.641

# Sample 5 — technique: Sort-seq; refers to: YFP reporter; sample: E. coli; setting: PhoQ-PhoP variant library; together with: 10 µM Mg2+; reference: high Mg2+ state; direction: higher = stronger signaling
# Molecule: PhoQ, residues 284 288 289 292 302 303 ASTSDA
target,fold induction
"PhoP, residues 12 14 15 18 19 HHYTI (Escherichia coli, UniProt P23836)",2.86
"PhoP, residues 12 14 15 18 19 AYFRS (Escherichia coli, UniProt P23836)",5.85
"PhoP, residues 12 14 15 18 19 SFCSL (Escherichia coli, UniProt P23836)",15.9

# Sample 6 — technique: protein-binding microarray; form: double-stranded DNA, one strand shown; sample: in vitro; concentration: 250 nM; setting: 60-bp whole probe; together with: salmon DNA 0.4 mg/ml; reference: random background probes; direction: higher = stronger binding; all sequences stand within: GCCTAGCAC … GTCTTGATTCGCTTGACGCTGCTG
# Target: Interferon regulatory factor 5, full length, phosphomimetic (IRF5, Homo sapiens, UniProt Q13568-2, residues 1-514, K96S/S451D/S453D/S456D/S462D)
Sequence,log fluorescence [z-score]
TCACCTCTTTCTTTGCTACTGTGCTAG,1.09
TCATTTGTCATCTATAATACTGTGCTA,0.987
GACGGACTGCCACTGCTGACGTGCTAG,-0.715
TTAGGACTGCTAGTGCTTTAGTGCTAG,-0.179
TTACATTTCGGGTATCGATTAGTGCTA,7.49
GACGGAATGGGGACTGGGGACGTGCTA,-0.209
GACGGACAGGACTTTCGGGACGTGCTA,4.74
TTAGGACTGGACACTCGGTTAGTGCTA,-0.314
GACGGTCTCGTACTGGGGACGTGCTAG,-0.321
TCATTTTTCTCCTATTTAACTGTGCTA,2.19
GACGGTTTCGGGACTGGGGGCGTGCTA,5.54
GACGGTATCCTACTGCAGACGTGCTAG,-0.0575
TTAGATATCAGACTGGAGTAGTGCTAG,0.255
TTAGAACTGAGACTGGATTCGTGCTAG,-0.121
TCAGAACTGAGTATCGATTAGTGCTAG,6.75
CTAGGTTTCGGGTATCGGTTAGTGCTA,9.28
GGCGATCTCAGTTTCGAGACGTGCTAG,4.68
TTAGGACTAGACTTTCGGTTAGTGCTA,9.3
TTAGGTCTGCTTTTCCTTTAGTGCTAG,0.158

# Repeated from above (sample 3):
Change,normalised enrichment score
ASYSRVQLFKDDP [K3Y],0.343
ASKSRVQLEKDDP [F9E],0.252
AIKSRVQLFKDDP [S2I],0.651
ASKSRVQLFKDQP [D12Q],0.00181
ASKSRVMLFKDDP [Q7M],-0.191
